Assay results pooled from the literature.
Every numbered part comes from another study and shows a few of its results, in no order. Substitutions count along the parent as printed.

Block 1 — species: mouse; medium: microsomes or S9; tested at: 2 µM; time: 0.5 h
Structure (SMILES) | remaining compound
c1ccc(OCC2CN(c3ccc4nnc(-c5ccsc5)n4n3)CCO2)cc1 (centres unmarked) | 7.64%
Cc1ccc2nc3c(cc(C(=O)NCCCn4ccnc4)n3C)c(=O)n2c1 | 28%
COc1ccc(/C=C/c2nc(S(=O)(=O)c3ccccc3)c(N(C)C)o2)cc1 | 13%
COc1ccc(-n2ccnc2-c2nccn2[C@@H]2c3ccccc3C[C@@H]2O)cc1 | 0.439%
Cn1c(=O)c2[nH]c(N3CCN(c4cccc(O)c4)CC3)nc2n(C)c1=O | 57.8%
CN(C)S(=O)(=O)c1ccc(C(=O)Nc2ccncc2)o1 | 25.2%
Cc1cc(C)cc(N(C(=O)Cc2cccs2)C(C(=O)NC2CCCC2)c2ccncc2)c1 (centres unmarked) | 2.35%
CC(Nc1ccc2cc[nH]c2n1)c1cn2ccsc2n1 (centres unmarked) | 14.5%

Block 2 — effect on: ligand displacement; tested at: 10 µM
Target: D(4) dopamine receptor (DRD4, Homo sapiens, UniProt P21917)
Sequence of UniProt P21917 (whole entry, looked up): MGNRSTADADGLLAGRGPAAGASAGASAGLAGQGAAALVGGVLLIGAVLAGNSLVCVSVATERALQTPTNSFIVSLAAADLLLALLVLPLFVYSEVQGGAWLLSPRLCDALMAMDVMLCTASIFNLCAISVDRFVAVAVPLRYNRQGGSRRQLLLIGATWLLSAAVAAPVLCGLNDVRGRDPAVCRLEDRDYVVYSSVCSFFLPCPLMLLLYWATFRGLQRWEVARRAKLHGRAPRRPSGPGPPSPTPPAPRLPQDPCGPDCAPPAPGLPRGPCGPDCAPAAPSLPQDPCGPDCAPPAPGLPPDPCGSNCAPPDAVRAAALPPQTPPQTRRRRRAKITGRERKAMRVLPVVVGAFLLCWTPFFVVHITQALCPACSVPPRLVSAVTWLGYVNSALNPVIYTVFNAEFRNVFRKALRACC
Structure (SMILES) | inhibition
COc1cc(-c2cn(C3CCc4c(F)cccc4N(CC(F)(F)F)C3=O)nn2)ccc1-n1cnc(C)c1 (centres unmarked) | -7.76%
CN(C)C(=O)c1sc2nc(N3CCC(S(C)(=O)=O)CC3)cc(C(F)(F)F)c2c1N | 4.15%
Cc1ncc(-c2cc(Cl)ccc2F)cc1-n1c(=O)n(CC(N)=O)c2ccccc21 | -1.38%
O=C(NCCCC1CCCCC1)c1ccc(CNC(=O)c2cnn(-c3ccccc3)c2C(F)(F)F)cc1 | 21.7%
O=c1nc(-c2ccccn2)sc2ccccc12 | 10.1%
CCOc1ccc(S(=O)(=O)Nc2ccc(Cl)cc2C#Cc2cnc(C(=O)O)cc2OC)c2ncccc12 | 4.2%
CC1=C(C#N)C(c2ccc3[nH]nc(C)c3c2)C(C#N)=C(C)N1 | 24%
C[C@@H](c1cccc(C#N)c1)n1cc(Cl)cc(C(N)=O)c1=N | 10.1%
N#CC1(c2ccccn2)CCN(Cc2cc(C(=O)N3CCCC3)c(=O)n3ccccc23)CC1 | -8.64%
NC(=O)c1ccc2nc(-c3ccc(C4(N)CCC4)cc3)c(-c3ccccc3)n2n1 | 7.35%
CN(C)CC#Cc1ccc(OCCCc2sc(N3CCc4cccc(C(=O)Nc5nc6ccccc6s5)c4C3)nc2C(=O)O)c(F)c1 | -3.48%

Block 3 — technique: DHFR PCA, deep sequencing; medium: yeast; added: (+)-ABA 0.11 µM; baseline: wild-type fitted maximum; reading: higher = stronger binding
Target: ABI1, truncated, D143A, DHFR fusion (Arabidopsis thaliana)
Setting: methotrexate growth selection, single substitutions
Starting sequence: PYL1, truncated, DHFR fusion (Arabidopsis thaliana); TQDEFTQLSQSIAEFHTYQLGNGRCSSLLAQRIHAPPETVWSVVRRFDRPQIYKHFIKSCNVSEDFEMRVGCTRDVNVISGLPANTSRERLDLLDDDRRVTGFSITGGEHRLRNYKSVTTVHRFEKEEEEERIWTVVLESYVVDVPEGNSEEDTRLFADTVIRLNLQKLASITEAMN; partner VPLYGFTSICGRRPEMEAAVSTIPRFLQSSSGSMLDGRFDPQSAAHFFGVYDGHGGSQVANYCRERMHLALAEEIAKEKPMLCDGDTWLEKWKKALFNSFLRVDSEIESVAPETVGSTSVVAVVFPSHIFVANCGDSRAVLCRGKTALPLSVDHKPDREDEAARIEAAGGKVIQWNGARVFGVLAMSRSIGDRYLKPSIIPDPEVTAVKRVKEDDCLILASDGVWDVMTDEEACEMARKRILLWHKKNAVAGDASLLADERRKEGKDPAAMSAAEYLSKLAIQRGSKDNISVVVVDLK
Variant | relative binding score [%]
K116S | 19.6
R99Y | 77.7
L94C | -6.08
N22K | 48.9
I172T | 2.46
G81R | -1.42
V143W | -5.15
L8E | 6.39

Block 4 — technique: RNA Bind-n-Seq; molecule type: RNA; medium: in vitro; tested at: 1 µM; setting: whole 134-nt RNA, ends assumed; added: 150 mM KCl; baseline: input library; reading: higher = stronger binding
Target: Ras GTPase-activating protein-binding protein 1, C-terminal RGG region (G3BP1, Homo sapiens, UniProt Q13283)
Sequence of UniProt Q13283 (whole entry, looked up): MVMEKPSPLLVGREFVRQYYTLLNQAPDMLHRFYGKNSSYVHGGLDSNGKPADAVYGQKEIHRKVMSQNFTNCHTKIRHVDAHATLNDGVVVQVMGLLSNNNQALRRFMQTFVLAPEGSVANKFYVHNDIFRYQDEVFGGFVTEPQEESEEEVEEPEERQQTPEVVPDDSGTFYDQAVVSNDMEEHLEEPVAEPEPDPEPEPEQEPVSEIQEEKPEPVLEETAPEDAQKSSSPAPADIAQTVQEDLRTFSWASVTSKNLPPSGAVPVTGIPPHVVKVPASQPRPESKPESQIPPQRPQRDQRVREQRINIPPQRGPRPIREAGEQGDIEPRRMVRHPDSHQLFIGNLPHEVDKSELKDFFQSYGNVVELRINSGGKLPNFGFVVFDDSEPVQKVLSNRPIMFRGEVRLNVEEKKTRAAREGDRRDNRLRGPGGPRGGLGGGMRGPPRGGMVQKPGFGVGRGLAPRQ
Strand | log2 enrichment
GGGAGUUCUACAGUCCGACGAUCUCCUGUGCUACACAUCGUAUGUACCGAAUCGGUUUUUUGGGGUUUUUUGGGUUUUUUGGGAAAGUAUUAUGUUACGCCGUUCGGAUCUGCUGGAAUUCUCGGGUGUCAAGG | -0.532
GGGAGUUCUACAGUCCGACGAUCGUCCUGUGCUACACAUCGUAUGUACCGAAUCGGGUUUUUGGGAAAAAGGGUUUUUGGGAAAGUAUUAUGUUACGCCGUUCGGAUCUGCACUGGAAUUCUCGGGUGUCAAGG | -0.158
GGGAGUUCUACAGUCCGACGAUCCAAGUCCUGUGCUACACAUCGUAUGUACCGAAUCGGGAAAAAAAGGGUGGGUGGGAAAGUAUUAUGUUACGCCGUUCGGAUCUGCACUUCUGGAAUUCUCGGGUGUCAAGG | 1.3
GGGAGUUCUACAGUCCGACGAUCCUGUGCUACACAUCGUAUGUACCGAAUCGGGUUUUUUGGGGUUUUUUGGGGUUUUUUGGGGAAAGUAUUAUGUUACGCCGUUCGGAUCUGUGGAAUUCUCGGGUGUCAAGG | -0.415
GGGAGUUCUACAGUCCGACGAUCCCUGUGCUACACAUCGUAUGUACCGAAUCGGCCCCCCCGGCCCCCCCGGGCCCCCCCGGGAAAGUAUUAUGUUACGCCGUUCGGAUCUGCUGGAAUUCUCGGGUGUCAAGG | -1.27
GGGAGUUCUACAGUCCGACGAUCCUCAAGUCCUGUGCUACACAUCGUAUGUACCGAAUCGGGGAGGGGAGGGAGGGGAAAGUAUUAUGUUACGCCGUUCGGAUCUGCACUUCCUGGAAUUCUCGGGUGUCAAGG | 3.01
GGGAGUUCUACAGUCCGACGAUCCACAGACAACACGCACCGACACAGACACAGAGGGAAGGGGUUGGGAUGGGGACAGGGUGCACAGCAGGGCGGGGUAGGACCCCAGCCCCUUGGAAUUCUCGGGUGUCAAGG | -0.355
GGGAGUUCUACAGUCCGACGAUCCUCAAGUCCUGUGCUACACAUCGUAUGUACCGAAUCGGAAAGGAAAGGAAAGGAAAGUAUUAUGUUACGCCGUUCGGAUCUGCACUUCCAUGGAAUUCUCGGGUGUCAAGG | -1.5

Repeated from above (block 4):
Strand | log2 enrichment
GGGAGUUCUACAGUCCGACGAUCCCUGUGCUACACAUCGUAUGUACCGAAUCGGCCCCCCCGGCCCCCCCGGGCCCCCCCGGGAAAGUAUUAUGUUACGCCGUUCGGAUCUGCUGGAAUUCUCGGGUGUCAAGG | -1.27
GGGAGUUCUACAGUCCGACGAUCCUGUGCUACACAUCGUAUGUACCGAAUCGGGUUUUUUGGGGUUUUUUGGGGUUUUUUGGGGAAAGUAUUAUGUUACGCCGUUCGGAUCUGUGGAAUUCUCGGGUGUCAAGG | -0.415
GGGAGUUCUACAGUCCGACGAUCGUCCUGUGCUACACAUCGUAUGUACCGAAUCGGGUUUUUGGGAAAAAGGGUUUUUGGGAAAGUAUUAUGUUACGCCGUUCGGAUCUGCACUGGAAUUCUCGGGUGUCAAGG | -0.158
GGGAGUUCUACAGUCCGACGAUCCACAGACAACACGCACCGACACAGACACAGAGGGAAGGGGUUGGGAUGGGGACAGGGUGCACAGCAGGGCGGGGUAGGACCCCAGCCCCUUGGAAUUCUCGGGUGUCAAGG | -0.355
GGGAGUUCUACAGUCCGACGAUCCAAGUCCUGUGCUACACAUCGUAUGUACCGAAUCGGGAAAAAAAGGGUGGGUGGGAAAGUAUUAUGUUACGCCGUUCGGAUCUGCACUUCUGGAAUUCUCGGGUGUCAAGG | 1.3
